# Measured values pooled from the literature.
# By UniProt entry, the sequences of proteins in these tests, tags left out. Where a name states a change or a piece, a line headed by the entry shows the natural chain unless it says otherwise. Residues count along the entry.
# UniProt Q3UFF7, whole entry: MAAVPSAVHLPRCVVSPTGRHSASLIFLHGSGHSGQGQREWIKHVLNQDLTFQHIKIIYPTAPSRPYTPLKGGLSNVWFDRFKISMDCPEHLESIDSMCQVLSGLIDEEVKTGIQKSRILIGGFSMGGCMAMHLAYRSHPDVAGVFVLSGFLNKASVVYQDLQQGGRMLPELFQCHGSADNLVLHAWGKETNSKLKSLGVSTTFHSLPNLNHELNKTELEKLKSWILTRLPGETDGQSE
# UniProt P46934, whole entry, looked up: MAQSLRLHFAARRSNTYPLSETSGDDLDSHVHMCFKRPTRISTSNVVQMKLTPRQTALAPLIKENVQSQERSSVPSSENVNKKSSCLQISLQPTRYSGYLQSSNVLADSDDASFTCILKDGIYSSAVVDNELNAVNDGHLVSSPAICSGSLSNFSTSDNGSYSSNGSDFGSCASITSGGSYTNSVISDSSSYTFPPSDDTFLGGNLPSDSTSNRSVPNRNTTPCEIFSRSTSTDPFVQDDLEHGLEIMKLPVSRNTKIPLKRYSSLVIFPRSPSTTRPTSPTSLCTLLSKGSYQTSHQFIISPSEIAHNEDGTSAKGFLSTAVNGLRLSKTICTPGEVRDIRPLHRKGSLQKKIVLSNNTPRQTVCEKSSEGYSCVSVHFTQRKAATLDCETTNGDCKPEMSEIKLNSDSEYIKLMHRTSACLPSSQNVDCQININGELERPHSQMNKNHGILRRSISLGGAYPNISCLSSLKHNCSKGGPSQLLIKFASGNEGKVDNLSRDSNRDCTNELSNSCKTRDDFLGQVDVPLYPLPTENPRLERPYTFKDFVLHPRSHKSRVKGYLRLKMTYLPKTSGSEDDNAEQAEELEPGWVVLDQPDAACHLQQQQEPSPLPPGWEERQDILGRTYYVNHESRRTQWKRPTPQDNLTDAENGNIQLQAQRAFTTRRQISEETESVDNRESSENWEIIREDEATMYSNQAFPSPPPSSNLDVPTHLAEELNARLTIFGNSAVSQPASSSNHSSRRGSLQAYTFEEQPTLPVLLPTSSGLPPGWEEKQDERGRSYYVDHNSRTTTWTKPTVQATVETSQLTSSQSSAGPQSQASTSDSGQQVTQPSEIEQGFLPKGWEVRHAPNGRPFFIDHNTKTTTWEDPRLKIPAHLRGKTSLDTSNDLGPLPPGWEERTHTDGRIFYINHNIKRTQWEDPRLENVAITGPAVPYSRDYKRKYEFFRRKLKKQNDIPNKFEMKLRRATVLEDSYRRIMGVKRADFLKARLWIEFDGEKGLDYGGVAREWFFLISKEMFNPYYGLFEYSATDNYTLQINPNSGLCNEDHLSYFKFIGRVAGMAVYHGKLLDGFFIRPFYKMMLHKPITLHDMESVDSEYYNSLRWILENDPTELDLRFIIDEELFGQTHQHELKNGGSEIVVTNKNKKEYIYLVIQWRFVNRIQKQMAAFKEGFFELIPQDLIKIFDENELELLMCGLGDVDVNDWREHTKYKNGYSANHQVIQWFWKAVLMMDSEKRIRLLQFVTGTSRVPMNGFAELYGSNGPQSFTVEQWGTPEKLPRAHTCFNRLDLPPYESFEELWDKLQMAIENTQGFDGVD
# UniProt Q14833, 33-912 limits assumed: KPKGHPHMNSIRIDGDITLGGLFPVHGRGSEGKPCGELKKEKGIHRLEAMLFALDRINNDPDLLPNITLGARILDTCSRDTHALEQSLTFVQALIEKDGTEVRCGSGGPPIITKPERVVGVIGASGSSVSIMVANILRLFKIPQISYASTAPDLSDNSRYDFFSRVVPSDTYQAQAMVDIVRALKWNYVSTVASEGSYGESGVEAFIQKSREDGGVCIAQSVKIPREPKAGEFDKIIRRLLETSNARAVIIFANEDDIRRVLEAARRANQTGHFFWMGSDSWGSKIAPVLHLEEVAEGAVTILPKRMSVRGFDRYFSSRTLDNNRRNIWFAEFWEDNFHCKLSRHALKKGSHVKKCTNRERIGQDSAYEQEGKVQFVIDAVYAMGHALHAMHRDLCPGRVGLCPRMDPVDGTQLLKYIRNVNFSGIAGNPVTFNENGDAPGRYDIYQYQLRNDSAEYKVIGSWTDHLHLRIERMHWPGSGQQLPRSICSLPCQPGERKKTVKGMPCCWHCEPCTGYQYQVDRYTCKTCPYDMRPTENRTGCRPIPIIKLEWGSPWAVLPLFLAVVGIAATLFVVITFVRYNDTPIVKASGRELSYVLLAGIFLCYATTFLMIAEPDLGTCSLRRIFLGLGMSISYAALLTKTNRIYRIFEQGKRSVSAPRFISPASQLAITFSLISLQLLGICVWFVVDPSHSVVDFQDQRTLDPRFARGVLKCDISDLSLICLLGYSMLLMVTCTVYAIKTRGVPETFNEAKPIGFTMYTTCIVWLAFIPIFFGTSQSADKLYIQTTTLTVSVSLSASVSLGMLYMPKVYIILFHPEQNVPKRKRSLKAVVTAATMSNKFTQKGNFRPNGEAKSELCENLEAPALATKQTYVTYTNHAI
# UniProt Q06187, whole entry: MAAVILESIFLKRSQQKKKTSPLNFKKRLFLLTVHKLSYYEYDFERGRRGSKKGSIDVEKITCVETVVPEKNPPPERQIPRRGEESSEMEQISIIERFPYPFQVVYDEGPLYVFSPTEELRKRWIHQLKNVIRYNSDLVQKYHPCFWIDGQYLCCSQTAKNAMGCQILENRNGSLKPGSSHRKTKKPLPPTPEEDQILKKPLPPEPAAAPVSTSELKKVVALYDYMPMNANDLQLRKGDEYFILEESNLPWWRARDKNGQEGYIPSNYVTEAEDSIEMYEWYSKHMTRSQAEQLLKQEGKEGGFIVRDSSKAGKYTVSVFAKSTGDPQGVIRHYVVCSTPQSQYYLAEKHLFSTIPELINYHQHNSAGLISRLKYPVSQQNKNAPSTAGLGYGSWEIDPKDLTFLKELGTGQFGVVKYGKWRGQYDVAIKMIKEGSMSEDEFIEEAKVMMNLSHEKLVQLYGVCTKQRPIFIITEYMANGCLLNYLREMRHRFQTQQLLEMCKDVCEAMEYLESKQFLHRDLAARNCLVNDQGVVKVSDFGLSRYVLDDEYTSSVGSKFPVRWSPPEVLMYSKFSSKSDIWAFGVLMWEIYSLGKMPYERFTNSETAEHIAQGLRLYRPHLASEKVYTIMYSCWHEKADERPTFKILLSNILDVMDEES
# UniProt Q923Y8, whole entry T268M/Y287N: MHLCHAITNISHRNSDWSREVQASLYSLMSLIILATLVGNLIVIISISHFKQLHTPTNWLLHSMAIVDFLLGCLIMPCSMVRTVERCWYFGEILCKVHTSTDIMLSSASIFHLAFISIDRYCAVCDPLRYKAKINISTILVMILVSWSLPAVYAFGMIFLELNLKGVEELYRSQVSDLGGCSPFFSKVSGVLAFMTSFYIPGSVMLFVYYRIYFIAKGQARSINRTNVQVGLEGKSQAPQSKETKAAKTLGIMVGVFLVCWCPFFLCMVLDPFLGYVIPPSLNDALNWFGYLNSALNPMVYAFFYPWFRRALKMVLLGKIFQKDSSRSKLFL
# UniProt P43220, whole entry, looked up: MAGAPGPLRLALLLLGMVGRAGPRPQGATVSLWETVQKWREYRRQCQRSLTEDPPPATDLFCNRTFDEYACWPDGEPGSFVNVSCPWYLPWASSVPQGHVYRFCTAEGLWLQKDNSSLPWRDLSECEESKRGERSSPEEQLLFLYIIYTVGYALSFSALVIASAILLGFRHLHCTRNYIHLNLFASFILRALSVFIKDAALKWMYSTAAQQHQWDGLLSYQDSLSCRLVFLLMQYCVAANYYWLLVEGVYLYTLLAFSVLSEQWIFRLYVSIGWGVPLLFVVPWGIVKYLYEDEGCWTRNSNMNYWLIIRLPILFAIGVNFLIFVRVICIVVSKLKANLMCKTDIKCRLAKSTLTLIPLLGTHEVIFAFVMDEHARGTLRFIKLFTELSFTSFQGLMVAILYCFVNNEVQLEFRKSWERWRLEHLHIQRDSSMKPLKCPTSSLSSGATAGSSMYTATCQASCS
# UniProt B2RXH2, whole entry: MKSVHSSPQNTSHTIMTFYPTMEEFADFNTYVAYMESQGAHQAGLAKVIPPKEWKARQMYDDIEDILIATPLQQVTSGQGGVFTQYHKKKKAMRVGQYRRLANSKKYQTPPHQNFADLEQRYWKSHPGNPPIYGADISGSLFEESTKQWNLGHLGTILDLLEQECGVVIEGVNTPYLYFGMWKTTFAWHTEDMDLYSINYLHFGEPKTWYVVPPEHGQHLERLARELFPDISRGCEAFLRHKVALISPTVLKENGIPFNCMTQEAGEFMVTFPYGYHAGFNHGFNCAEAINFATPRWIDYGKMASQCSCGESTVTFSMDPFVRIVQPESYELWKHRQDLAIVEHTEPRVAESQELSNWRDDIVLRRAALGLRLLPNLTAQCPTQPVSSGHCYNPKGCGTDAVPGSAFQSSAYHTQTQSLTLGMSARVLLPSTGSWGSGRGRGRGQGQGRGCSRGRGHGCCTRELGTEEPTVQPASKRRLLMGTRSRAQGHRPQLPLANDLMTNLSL
# UniProt P50552, whole entry, looked up: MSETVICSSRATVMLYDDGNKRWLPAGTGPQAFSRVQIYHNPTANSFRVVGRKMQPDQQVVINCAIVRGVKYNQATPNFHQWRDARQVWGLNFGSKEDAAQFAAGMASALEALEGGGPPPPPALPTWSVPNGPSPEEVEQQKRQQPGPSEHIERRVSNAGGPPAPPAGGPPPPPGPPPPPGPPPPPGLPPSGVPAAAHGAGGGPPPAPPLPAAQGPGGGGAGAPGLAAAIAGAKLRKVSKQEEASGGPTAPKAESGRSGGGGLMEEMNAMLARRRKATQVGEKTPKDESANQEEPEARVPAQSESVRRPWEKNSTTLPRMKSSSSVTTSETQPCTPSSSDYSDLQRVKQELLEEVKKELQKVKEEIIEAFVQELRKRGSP
# UniProt P21462, whole entry: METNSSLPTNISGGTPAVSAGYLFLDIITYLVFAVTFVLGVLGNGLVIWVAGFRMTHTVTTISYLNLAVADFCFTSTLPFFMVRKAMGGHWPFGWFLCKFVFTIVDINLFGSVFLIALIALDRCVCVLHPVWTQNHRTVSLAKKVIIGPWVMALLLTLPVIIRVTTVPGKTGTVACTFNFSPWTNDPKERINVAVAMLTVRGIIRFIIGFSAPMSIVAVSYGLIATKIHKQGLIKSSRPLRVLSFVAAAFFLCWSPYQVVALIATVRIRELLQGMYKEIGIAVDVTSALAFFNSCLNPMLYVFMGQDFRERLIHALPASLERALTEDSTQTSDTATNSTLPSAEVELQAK
# UniProt P31421, 19-872 limits assumed: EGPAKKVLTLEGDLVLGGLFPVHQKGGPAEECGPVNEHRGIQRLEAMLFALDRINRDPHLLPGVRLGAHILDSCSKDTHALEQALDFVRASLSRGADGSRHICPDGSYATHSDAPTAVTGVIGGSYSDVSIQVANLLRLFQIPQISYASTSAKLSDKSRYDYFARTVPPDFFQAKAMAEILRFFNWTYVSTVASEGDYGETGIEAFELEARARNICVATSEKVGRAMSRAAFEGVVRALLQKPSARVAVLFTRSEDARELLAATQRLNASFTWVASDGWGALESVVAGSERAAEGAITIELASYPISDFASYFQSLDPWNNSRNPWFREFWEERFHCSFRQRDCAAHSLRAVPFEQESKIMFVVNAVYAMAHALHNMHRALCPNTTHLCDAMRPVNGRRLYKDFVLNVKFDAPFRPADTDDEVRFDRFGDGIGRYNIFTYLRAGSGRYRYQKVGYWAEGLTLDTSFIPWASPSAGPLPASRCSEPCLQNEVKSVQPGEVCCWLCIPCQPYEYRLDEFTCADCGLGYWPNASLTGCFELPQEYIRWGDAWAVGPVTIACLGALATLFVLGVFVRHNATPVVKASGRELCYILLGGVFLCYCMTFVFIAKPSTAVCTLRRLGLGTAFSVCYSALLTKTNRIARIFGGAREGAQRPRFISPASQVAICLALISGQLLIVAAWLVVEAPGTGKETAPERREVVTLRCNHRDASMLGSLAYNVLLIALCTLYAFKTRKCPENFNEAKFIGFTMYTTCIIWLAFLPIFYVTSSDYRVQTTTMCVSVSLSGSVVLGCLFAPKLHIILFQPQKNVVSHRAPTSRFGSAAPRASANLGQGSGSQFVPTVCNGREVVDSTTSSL
# UniProt Q96SW2, whole entry: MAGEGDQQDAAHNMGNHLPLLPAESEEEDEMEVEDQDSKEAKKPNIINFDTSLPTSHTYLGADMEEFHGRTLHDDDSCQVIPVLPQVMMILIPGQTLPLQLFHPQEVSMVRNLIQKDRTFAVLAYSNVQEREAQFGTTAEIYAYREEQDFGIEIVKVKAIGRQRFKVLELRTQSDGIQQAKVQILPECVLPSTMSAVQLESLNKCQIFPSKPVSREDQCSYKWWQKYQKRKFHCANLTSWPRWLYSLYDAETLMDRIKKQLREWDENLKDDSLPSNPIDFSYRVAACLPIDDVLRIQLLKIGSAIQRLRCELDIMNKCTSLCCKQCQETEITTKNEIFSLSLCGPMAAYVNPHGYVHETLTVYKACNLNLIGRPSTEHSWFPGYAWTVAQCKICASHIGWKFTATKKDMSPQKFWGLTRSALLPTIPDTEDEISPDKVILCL
# UniProt Q03111, 1-148 limits assumed: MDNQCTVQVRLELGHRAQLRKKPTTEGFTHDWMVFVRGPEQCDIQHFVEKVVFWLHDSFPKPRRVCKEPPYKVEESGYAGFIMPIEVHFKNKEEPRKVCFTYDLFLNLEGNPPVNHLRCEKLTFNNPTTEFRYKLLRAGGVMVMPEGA
# Several values in a cell are separate wells, animals, samples, runs or records. ± marks the error that the study gave.
# Lysophospholipase-like protein 1: Lysophospholipase-like protein 1 (Mus musculus, UniProt Q3UFF7)
# E3 ubiquitin-protein ligase NEDD4: E3 ubiquitin-protein ligase NEDD4 (Homo sapiens, UniProt P46934)
# GRM4: Metabotropic glutamate receptor 4 (GRM4, Homo sapiens, UniProt Q14833)
# RPA1 N-terminal domain: Replication protein A 70 kDa DNA-binding subunit, N-terminal domain (RPA1, Homo sapiens, UniProt P27694)
SMILES,tested on,test,system,conditions,how to read,measurement,result
COc1ccc2c(c1)CN(C(=O)OC(C(F)(F)F)C(F)(F)F)C2,"FAAH (Homo sapiens, UniProt O00519)","enzyme activity, inhibitor, fluorescence AAMCA substrate",,1 µM,,activity,inactive
Cc1cc(SCc2sc(-c3cc4ccccc4o3)nc2C)ccc1OCC(=O)O,HEK293T,,,18 h,,CC50,> 80 µM
Nc1ncnc2c1c(-c1ccc(C(=O)Nc3cc(C(F)(F)F)ccn3)cc1)nn2[C@@H]1CCCN(C(=O)C2CC2)C1,"Tyrosine-protein kinase BTK, non-phosphorylated (BTK, Homo sapiens, UniProt Q06187)",TR-FRET binding kinetics,,"37 °C, unphosphorylated enzyme",,residence time,~20 min and 21.9 min
NCC(c1ccccc1)c1cccc(Oc2ccccc2)c1 (centres unmarked),"Taar1 (Mus musculus, UniProt Q923Y8, T268M/Y287N)","cAMP production, agonist",,double mutant,baseline: wild type,efficacy increase,39 to 95%
COC(=O)[C@@]1(C)C=C(C(=O)Nc2cccc(C(=O)NC34CC(Nc5nccc(-c6cccnc6)n5)(C3)C4)c2)C(=O)CC1,"MAPK10 (Homo sapiens, UniProt P53779)","enzyme activity, inhibitor",,0.5487 µM,,remaining activity,0.141 fraction of control
CS(=O)(=O)Oc1ccc(/C=C/c2c[nH]c3ccc(C#N)cc23)cc1,"Amyloid-beta precursor protein, Aβ1-40 (APP, Homo sapiens, UniProt P05067)","Aβ40 aggregation, thioflavin T fluorescence",,25 µM,,inhibition,57%
CCCCN(CCc1ccc(Cl)c(Cl)c1)C[C@H](O)COc1ccc(NS(C)(=O)=O)cc1,"Glutamate NMDA receptor; Grin1/Grin2b (Grin1/Grin2b, Rattus norvegicus, UniProt P35439+Q00960)",whole-cell voltage clamp,HEK cells,,baseline: pH 6.9 over pH 7.6,potency ratio,9 fold
Nc1nc(SCc2ccc(Cl)cc2)nn1S(=O)(=O)c1cccc2nonc12,Lysophospholipase-like protein 1,"activator, gel-based ABPP FP-rhodamine",,,baseline: DMSO,probe labelling,2 fold
CCC(C)(N)c1cn(CC(C)(C)c2c[nH]c3ccccc23)nn1 (centres unmarked),"GLP1R (Homo sapiens, UniProt P43220)","cAMP accumulation, positive allosteric modulator, HTRF",,"0.6 µM, purified compound, with: GLP-1(9-36) at EC20",baseline: BETP,Emax,104 ± 1%
O=C(O)c1ccnc(C(=O)O)c1Nc1ccc(F)cc1F,"KDM4E (Homo sapiens, UniProt B2RXH2)","inhibitor, FDH-coupled spectrophotometry, measured: formaldehyde",,200 µM,,remaining activity,12%
Cc1cc(NC(=O)c2cccc(NC(=O)C3=CC(C)(C)CCC3=O)c2)ccc1Nc1nccc(-c2cccnc2)n1,"MAPK8 (Homo sapiens, UniProt P45983)","kinase activity, inhibitor",,"4.938 µM, unit not given, with: 10 mM GSH",baseline: DMSO,remaining activity,0.239
CC(=O)N[C@@H](Cc1ccccc1Cl)C(=O)N1CCC[C@]12C=C[C@@H]1CC[C@@H](C(=O)N3CCC[C@@H]4C=C[C@H]5CC[C@@H](C(=O)O)N5C(=O)[C@H]43)N1C2=O,"Vasodilator-stimulated phosphoprotein, EVH1 domain (VASP, Homo sapiens, UniProt P50552)",fluorescence titration,,25 °C,,binding free energy,-7.91 kcal/mol
CCOC(=O)/C=C/CNCCCCCN1c2ccccc2CCc2ccc(Cl)cc21,E3 ubiquitin-protein ligase NEDD4,"inhibitor, Ub-TR-FRET",,"0.1372 µM, 1 h preincubation, HECT domain, with: ATP 2 mM",higher = more ubiquitination,ubiquitination TR-FRET signal AUC,70000 a.u. and 68200 a.u. and 71300 a.u. and 93300 a.u. and 94900 a.u. and 97500 a.u.
CCOc1ccc2nc(SCC(=O)Nc3ccc(Br)cc3)[nH]c2c1,"FPR1 (Homo sapiens, UniProt P21462)","calcium mobilization, agonist",transfected HL-60 cells,concentration not given,,activity class,active
CC(=O)N[C@H]1[C@H]2OC[C@](CO)(O2)[C@H](O)[C@@H]1O,"Asialoglycoprotein receptor 1 (Homo sapiens, UniProt P07306)","binding, surface plasmon resonance",,,"baseline: GalNAc, higher = stronger binding",affinity ratio,~6 fold
CCOC(=O)/C=C/CNCCCN1c2ccccc2CCc2ccc(Br)cc21,E3 ubiquitin-protein ligase NEDD4,"inhibitor, Ub-TR-FRET",,"1.235 µM, 1 h preincubation, HECT domain, with: ATP 2 mM",higher = more ubiquitination,ubiquitination TR-FRET signal AUC,119000 a.u.
COc1ccc(NC(=O)CN2CCCN(S(=O)(=O)c3ccc(OC(F)(F)F)cc3)CC2)c(OC)c1,GRM4,"calcium mobilization, positive allosteric modulator",CHO cells with Gqi5,with: glutamate,baseline: PHCCC maximal response,maximal response,48.2 ± 4.6%
CCOC(=O)/C=C/CNCCCCN1c2ccccc2CCc2ccc(Cl)cc21,E3 ubiquitin-protein ligase NEDD4,"inhibitor, Ub-TR-FRET",,"0.4115 µM, 1 h preincubation, HECT domain, with: ATP 2 mM",higher = more ubiquitination,ubiquitination TR-FRET signal AUC,59400 a.u. and 61700 a.u. and 58600 a.u. and 61800 a.u. and 62800 a.u. and 59700 a.u.
COC(=O)[C@@H]1C(c2nc3ccccc3s2)=Cc2cc3c(cc2[C@H]1c1cc(OC)c(OC)c(OC)c1)OCO3,Leishmania infantum,,"promastigote, iRFP",,,EC50,> 100 µM
Nc1ncn([C@@H]2O[C@H](CO)[C@@H](O)[C@H]2O)c(=O)c1Cl,"ADORA2B (Homo sapiens, UniProt P29275)",,CHO,10 µM,,functional activity,inactive
Cc1ccc(C(=O)Nc2cccc(C)c2C(=O)O)cc1S(=O)(=O)Nc1cccc(Cl)c1,RPA1 N-terminal domain,"binding, fluorescence polarisation competition",,with: FITC-ATRIP probe,,ligand efficiency,0.17
Nc1nc(SCc2ccc(Cl)c(Cl)c2)nn1S(=O)(=O)c1ccc2c(c1)CCO2,Lysophospholipase-like protein 1,"activator, gel-based ABPP FP-rhodamine",,,baseline: DMSO,probe labelling,2.2 fold
COc1ccc(NS(=O)(=O)c2cc(C(=O)Nc3ccccc3C(=O)O)ccc2C)cc1,RPA1 N-terminal domain,"binding, fluorescence polarisation competition",,with: FITC-ATRIP probe,,ligand efficiency,0.16
COC(=O)[C@@H]1C(c2nc3cncnc3[nH]2)=Cc2cc3c(cc2[C@H]1c1cc(OC)c(OC)c(OC)c1)OCO3,Leishmania infantum,,"promastigote, iRFP",,,EC50,> 100 µM
COc1ccc(S(=O)(=O)n2nc(SCc3ccc(Cl)cc3)nc2N)cn1,"LYPLAL1 (Homo sapiens, UniProt Q5VWZ2)","activator, gel-based ABPP",purified protein,,baseline: DMSO,FP-rhodamine labelling,1.9 fold
NC(=O)c1cn(-c2ccc(F)cc2)c2ccc(NCCc3ccncc3)cc2c1=O,"Grm2 (Rattus norvegicus, UniProt P31421)","calcium mobilization, negative allosteric modulator",,"30 µM, with: glutamate 100 µM",baseline: glutamate maximum,response,2.01 ± 0.4%
CC(=O)N[C@@H](CCC(N)=O)C(=O)N[C@H](C(=O)N[C@@H](C)C(=O)N[C@@H](CCCNC(=N)N)C(=O)N[C@@H](CCCCNC(=O)CCc1ccc(N=Nc2ccc(N(C)C)cc2)cc1)C(=O)N[C@@H](CO)C(=O)N[C@H](C(=O)NCC(=O)NCC(=O)NCCCNC(=S)Nc1ccc2c(c1)C(=O)OC21c2ccc(O)cc2Oc2cc(O)ccc21)[C@@H](C)O)[C@@H](C)O,"SIRT2 (Homo sapiens, UniProt Q8IXJ6)","enzyme activity, substrate, plate reader kinetics",,,,Km,0.52 ± 0.059 µM
Nc1nc2ccccn2c1C(=O)c1ccc2c(c1)CN(C1CCC(=O)NC1=O)C2=O (centres unmarked),"WEE1/CRBN (Homo sapiens, UniProt P30291+Q96SW2)","degrader, HiBiT",Jurkat,5 h,,Dmax,61%
CC(=O)Nc1ncc(CN2CC[C@H](Oc3cccc(F)n3)C[C@@H]2C)s1 [isotope labelled],"Protein O-GlcNAcase (OGA, Homo sapiens, UniProt O60502)",saturation binding,human hippocampus homogenate,radiolabelled compound,,Bmax,9.8 ± 0.8 nM
CCn1c(-c2cc(NC(=O)c3cnccn3)n[nH]2)cc2ccc(OC)cc21,"CSNK2A1 (Homo sapiens, UniProt P68400)","enzyme activity, inhibitor",,,,maximal inhibition,70%
O=C(Nc1ccc(C(=O)N2CC(c3nccs3)C2)s1)[C@@H]1CCCN1,"Protein ENL (MLLT1, Homo sapiens, UniProt Q03111)",,,concentration not given,,binding,no binding
CC(=O)N[C@@H](CC(C)C)C(=O)N[C@H](C(=O)N[C@@H](CO)C(=O)N[C@@H](CCCNC(=N)N)C(=O)Nc1ccc2c(CC(N)=O)cc(=O)oc2c1)C(C)C,"MALT1 (Homo sapiens, UniProt Q9UDY8)","substrate, fluorogenic peptide hydrolysis",,"pH 7.5, enzyme 399 nM, citrate 0.9 M",,kcat/Km,4600 M⁻¹ s⁻¹
O=C(Nc1ccccc1)C12CC1/C(=N\O)c1cc(F)ccc1O2 (centres unmarked),GRM4,"positive allosteric modulator, calcium mobilization",CHO expressing Gqi5,"concentration not given, with: glutamate EC20",baseline: (±)-PHCCC,response,139%
CC(C)C[C@H](NC(=O)[C@H](CCC(N)=O)NC(=O)[C@@H](NC(=O)[C@H](CCCCN)NC(=O)[C@H](CC(N)=O)NC(=O)[C@H](CCC(N)=O)NC(=O)[C@H](CC(C)C)NC(=O)[C@@H]1CCCN1C(=O)[C@H](CCC(N)=O)NC(=O)CNC(=O)[C@H](CO)NC(=O)[C@H](CCCNC(=N)N)NC(=O)[C@H](Cc1ccccc1)NC(=O)c1ccccc1N)C(C)C)C(=O)N[C@@H](CCC(N)=O)C(=O)NCCNc1ccc([N+](=O)[O-])cc1[N+](=O)[O-],"Mitochondrial intermediate peptidase (MIPEP, Homo sapiens, UniProt Q99797)","substrate, FRET peptide hydrolysis",,,,kcat/Km,130000 M⁻¹ s⁻¹
COCOCCCC(C(=O)/C=C/c1ccc(O)c(OC(F)(F)F)c1)C(=O)/C=C/c1ccc(O)c(OC(F)(F)F)c1,"APP (Homo sapiens, UniProt P05067)","SDS-PAGE western blot, measured: Aβ1-42 species 75-200 kDa",,"30 µM, 24 h, 37 °C, with: Aβ 10 µM",baseline: DMSO control,Aβ band density,548 ± 126%

# Some of these lines once more:
SMILES,tested on,test,system,conditions,how to read,measurement,result
CCOC(=O)/C=C/CNCCCCN1c2ccccc2CCc2ccc(Cl)cc21,E3 ubiquitin-protein ligase NEDD4,"inhibitor, Ub-TR-FRET",,"0.4115 µM, 1 h preincubation, HECT domain, with: ATP 2 mM",higher = more ubiquitination,ubiquitination TR-FRET signal AUC,59400 a.u. and 61700 a.u. and 58600 a.u. and 61800 a.u. and 62800 a.u. and 59700 a.u.
COC(=O)[C@@H]1C(c2nc3ccccc3s2)=Cc2cc3c(cc2[C@H]1c1cc(OC)c(OC)c(OC)c1)OCO3,Leishmania infantum,,"promastigote, iRFP",,,EC50,> 100 µM
Nc1ncn([C@@H]2O[C@H](CO)[C@@H](O)[C@H]2O)c(=O)c1Cl,"ADORA2B (Homo sapiens, UniProt P29275)",,CHO,10 µM,,functional activity,inactive
Cc1ccc(C(=O)Nc2cccc(C)c2C(=O)O)cc1S(=O)(=O)Nc1cccc(Cl)c1,RPA1 N-terminal domain,"binding, fluorescence polarisation competition",,with: FITC-ATRIP probe,,ligand efficiency,0.17
Nc1nc(SCc2ccc(Cl)c(Cl)c2)nn1S(=O)(=O)c1ccc2c(c1)CCO2,Lysophospholipase-like protein 1,"activator, gel-based ABPP FP-rhodamine",,,baseline: DMSO,probe labelling,2.2 fold
